Measurements of several laboratories.
Parts stem from different laboratories: compare values within a part only. Positions count from the first letter of the parent shown.

Set 1
Target: RING finger protein unkempt homolog, zinc fingers 1-6, GST-SBP tag (UNK, Homo sapiens, UniProt Q9C0B0, residues 30-357)
Chain of UniProt Q9C0B0 (30-357, looked up): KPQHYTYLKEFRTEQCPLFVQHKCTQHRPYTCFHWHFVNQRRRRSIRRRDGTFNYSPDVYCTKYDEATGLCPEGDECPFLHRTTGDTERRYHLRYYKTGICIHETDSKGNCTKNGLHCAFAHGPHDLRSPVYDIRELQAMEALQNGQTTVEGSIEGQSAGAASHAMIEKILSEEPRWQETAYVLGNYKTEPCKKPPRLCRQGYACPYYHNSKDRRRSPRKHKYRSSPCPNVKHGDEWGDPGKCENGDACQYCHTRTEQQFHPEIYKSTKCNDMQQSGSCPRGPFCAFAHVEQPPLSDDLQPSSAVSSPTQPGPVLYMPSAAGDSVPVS
Technique: RNA Bind-n-Seq
Form: RNA
Medium: in vitro
Tested at: not given
Setting: RNA with constant flanks, human and mouse sites, ends assumed
Baseline: input RNA pool
Reading: higher = stronger binding
With `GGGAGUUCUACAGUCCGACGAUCGAGUGUGUCGGAAUCCCGUGCUUAAAAUACGCUCUUAAAUUAUUUUCUAGUCUUAUUUUACAAUGUCUCAUUGUAGUCUGUCUUCAACUAUUUUAUCCAAAAUAAACCUCCAGAAGAAAGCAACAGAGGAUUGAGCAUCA` the bound/input enrichment was 28.9 ratio.
With `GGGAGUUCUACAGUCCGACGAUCGCACAGAUUCAUCAAUUCAGAGAGGAUUCAUUGGAUAGCGUUCUUUUUUUAAAGAAGAUUGAUAGAUGCUGGCAAAACCAUUGCAGACAAAUGAUCAUGAUCAGGAGCAUUUUUUUGUUUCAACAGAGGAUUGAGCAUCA` the bound/input enrichment was 0.402 ratio.
For `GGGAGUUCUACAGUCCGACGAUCCCUGUAAGCACCUGUUUUUCCAUGGAAUGGGGUUAAUGAGUAGGUAGAAAAGGAAAAGGAAUAAUCAGUAGGAGCUGACAACCAGUGACCAUAUAAGCAGCUGAUUGCCUGUAAUUAGUCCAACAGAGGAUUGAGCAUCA`, the bound/input enrichment was 1.45 ratio.
The bound/input enrichment of `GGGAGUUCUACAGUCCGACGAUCCGAAGACGACGAGAAGAUGACAGGAUCUCAAGACCUCAUCCUUCAACAGCUGAAUCAAAGGCUCCAACACCAAAGUUUGACUUAUUAGCCUCAAAUUUUCCACCUUUACCUGGAAGUUCACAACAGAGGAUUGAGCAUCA` is reported as 0.172 ratio.
With `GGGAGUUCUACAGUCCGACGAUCGGGCCUCUGUUCAAUACUGACUAUGACAUCCUUAAAAGCAACUUGCAGAACUGCAGCAAAUUUAGUGCUAUACAAUGUGCAGCUGCCGUCCCUAGAGCUCCUGCUGAAUCCUCUUCGUCUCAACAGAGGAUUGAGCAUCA` the bound/input enrichment was 0.437 ratio.
`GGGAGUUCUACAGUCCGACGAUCGCAGAAGAGUGCCCUGGUCAAGCGGCUCAAAGGGGCUCUAAUGCUAGAAAAUUUACAAAAACACUCAACACCCCAUGCUGCAUUCCAGCCAAAUUCACAGAUCGGGGAGGAAAUGAGCCACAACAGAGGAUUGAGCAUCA` has a bound/input enrichment of 5.72 ratio.

Set 2
Target: Histone acetyltransferase KAT6A, winged helix 2, GST fusion (KAT6A, Homo sapiens, UniProt Q92794, residues 85-181)
Technique: protein binding microarray
Form: double-stranded DNA, one strand shown
Medium: in vitro
Tested at: not given
Setting: 8-mer, flanks averaged, mean of 2 arrays, mostly near background
Baseline: not given
Reading: higher = stronger binding
Residues (chain): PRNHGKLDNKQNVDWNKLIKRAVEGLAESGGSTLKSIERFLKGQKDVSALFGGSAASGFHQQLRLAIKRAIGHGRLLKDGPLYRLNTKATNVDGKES
The E-score of `ACTACTTG` is reported as -0.11.
The E-score of `CATGGCCC` is reported as -0.0488.
`CGTTAAAC` gave an E-score of -0.198.
`AATACCCA` has an E-score of -0.0281.
`ACATGACG` gave an E-score of -0.199.
`AGAAGATG` gave an E-score of 0.0825.
`CATACTCG` has an E-score of -0.0571.
For `GGCCAGGA`, the E-score was -0.0239.
The E-score of `GAGTAAAA` is reported as 0.0696.
For `CTATGCAG`, the E-score was 0.229.
For `CGTGCTAC`, the E-score was -0.0458.
With `TATGACCA` the E-score was -0.0929.
With `CGAGCTTC` the E-score was 0.0982.
With `AAGTTCAA` the E-score was -0.0922.
`AGCGGAGC` has an E-score of 0.171.
The E-score of `ACTCTCCT` is reported as -0.186.
`ACCCAAGA` has an E-score of 0.0949.
`AGGCGCCT` gave an E-score of 0.107.
For `AGGTGGAA`, the E-score was 0.0349.
The E-score of `ACCCACAT` is reported as -0.00089.
`CATCTAAG` gave an E-score of -0.163.
For `GTTGACGA`, the E-score was -0.0413.
`CGAGCAAG` has an E-score of 0.0513.
For `ATATGAAA`, the E-score was 0.0191.
`GATTGCCC` has an E-score of 0.0831.

Set 3
Target: TEF, bZIP domain (human)
Technique: DHFR protein complementation
Medium: yeast
Setting: single substitutions, most at no-binding floor
Baseline: wild-type JUN-FOS pair
Reading: higher = stronger binding
Parent: JUN, bZIP domain (human); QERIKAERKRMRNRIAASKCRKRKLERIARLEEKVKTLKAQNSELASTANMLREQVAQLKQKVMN; partner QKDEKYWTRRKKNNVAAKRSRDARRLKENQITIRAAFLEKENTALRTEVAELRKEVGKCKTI
For `Q55K`, the binding fitness was -1.24 natural log.
The binding fitness of `K36R` is reported as -1.47 natural log.
`A49E` gave a binding fitness of -1.51 natural log.
`K36F` has a binding fitness of -1.58 natural log.
With `L38E` the binding fitness was -1.53 natural log.
The binding fitness of `A40P` is reported as -1.41 natural log.
`E44P` has a binding fitness of -1.44 natural log.
With `L31I` the binding fitness was -1.49 natural log.
`A49G` gave a binding fitness of -1.5 natural log.

Set 4
Target: Fragile X messenger ribonucleoprotein 1, C-terminal low-complexity region (Fmr1, Mus musculus, UniProt P35922)
Technique: RNA Bind-n-Seq
Form: RNA
Medium: in vitro
Tested at: 200 nM
Setting: whole 134-nt RNA, ends assumed
Added: 150 mM LiCl
Baseline: input library
Reading: higher = stronger binding
Each molecule: 7-deaza-guanosine replaces G
For `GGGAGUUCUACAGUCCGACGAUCCCUGUGCUACACAUCGUAUGUACCGAAUCGGGUUUUUUUGGGGUUUUUUUGGUUUUUUUGGAAAGUAUUAUGUUACGCCGUUCGGAUCUGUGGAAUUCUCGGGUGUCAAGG`, the log2 enrichment was 0.609.
With `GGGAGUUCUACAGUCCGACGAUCGCAGGAAGUAAAAACAAAUGGAAAUGCUUCGGAUUGUGGCAGGGGUGGGGGUUGCUAAGGAAAGGGUGGGAUGGGAGUGGGUAAAGAGUUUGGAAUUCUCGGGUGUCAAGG` the log2 enrichment was 1.55.
`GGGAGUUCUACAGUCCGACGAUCGCUUUGCCUUCACUUAUUUCUUUGCUUUUUAAAAACUAUUUGUAAUGUAAUUUUAAUGCAUUUUUUACAGGCCCAGUAAUGGUUAAAUACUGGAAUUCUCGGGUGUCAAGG` has a log2 enrichment of 0.533.
`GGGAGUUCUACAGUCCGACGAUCCCUCAAGUCCUGUGCUACACAUCGUAUGUACCGAAUCGGGGCGGGCGGCGGGAAAGUAUUAUGUUACGCCGUUCGGAUCUGCACUUCCAGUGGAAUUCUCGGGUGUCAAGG` has a log2 enrichment of -0.907.
`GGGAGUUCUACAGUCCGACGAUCUGGCCCUGGUGGCAUGCGGGGAGGAAGAGGUGGCCUCAUGGAUCGUGGUGGUCCCGGUGGAAUGUUCAGAGGUGGACGUGGUGGAGACAGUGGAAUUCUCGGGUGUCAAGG` gave a log2 enrichment of -0.488.
For `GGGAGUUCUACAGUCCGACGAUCCCUGUGCUACACAUCGUAUGUACCGAAUCGGGCCCCCCGGGGCCCCCCGGGGCCCCCCGGAAAGUAUUAUGUUACGCCGUUCGGAUCUGCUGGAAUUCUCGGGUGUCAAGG`, the log2 enrichment was -2.65.
With `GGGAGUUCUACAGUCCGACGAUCGCAGGAAGUAAAAACAAUUGGAAAUGCUUCGGAUAGUGGCAGGGGUGGGGGUUGCUAAGGAAAGGGUGGGAUGGGAGUGGGUAAAGAGUUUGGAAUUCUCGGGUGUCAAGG` the log2 enrichment was 1.54.
`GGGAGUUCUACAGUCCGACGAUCUAACUUUAGAGGAGGAUCUGAUGGAUAUGGCAGUGGACGUGGAUUUGGGGAUGGAUAUAAUGGGUAUGGAGGAGGACCUGGAGGUGGCAAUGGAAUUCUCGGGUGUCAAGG` gave a log2 enrichment of 1.44.

Set 5
Target: human cyclin B1
Observed: peptide binding
Technique: yeast competitive growth sequencing
Form: peptide
Organism: Saccharomyces cerevisiae
Strain: cyclin B1-Cln2 fusion
Tested at: concentration not given
Setting: peptide tiling library
Reading: direction not given
`VLPGGVPSPGASLTSM`: “binding enrichment score” 0.833.
For `VLVRTSACRSLFGPVD`, “binding enrichment score” read -0.17.
For `PAKRRLELGE`, “binding enrichment score” read -0.0285.
For `AIRKMREDRWAVIAKM`, “binding enrichment score” read 0.624.
`KPITLDTTDFQESFVT`: “binding enrichment score” 0.281.
`KRCATPVIIDEILPSK` — result for “binding enrichment score”: 0.0649.
`IQKKLRFEDTLEFVGF`: “binding enrichment score” 0.667.
`FREFEVEKQTAEETGL`: “binding enrichment score” 1.08.
`SCCKRKLVVGNGPEGP`: “binding enrichment score” 0.0866.
Under “binding enrichment score”, `SAVPLILPQAPSGPSY` is recorded as 0.826.
`KPHVSDEEEEEPPFYH` — result for “binding enrichment score”: 0.479.
Under “binding enrichment score”, `DKYDEGLYRFNSLNDL` is recorded as 0.52.
`DGCSPIKNWSPMRL`: “binding enrichment score” -0.382.
Under “binding enrichment score”, `TSPGPVLLHPSPSTTQ` is recorded as 0.152.
Under “binding enrichment score”, `PARRRLRLSVDEVSSP` is recorded as 0.372.
`RDLFDCDFGDLTPLDF` — result for “binding enrichment score”: 0.314.
`AKRSLGFLPQPVPL`: “binding enrichment score” 0.172.

Further values, each from its own experiment
The fold induction of `PhoQ, residues 284 288 289 292 302 303 SVTLVV` is reported as 1.37 (PhoP, residues 12 14 15 18 19 NHTVL (Escherichia coli, UniProt P23836); Sort-seq, refers to: YFP reporter; E. coli; PhoQ-PhoP variant library, added: 10 µM Mg2+; baseline: high Mg2+ state, higher = stronger signaling).

Some of these lines once more (set 2):
`ACATGACG` gave an E-score of -0.199.
For `AGGTGGAA`, the E-score was 0.0349.
For `GGCCAGGA`, the E-score was -0.0239.
For `CTATGCAG`, the E-score was 0.229.
`GATTGCCC` has an E-score of 0.0831.
With `AAGTTCAA` the E-score was -0.0922.
For `GTTGACGA`, the E-score was -0.0413.
For `ATATGAAA`, the E-score was 0.0191.
With `CGAGCTTC` the E-score was 0.0982.
